Results from different studies.
Parts stem from different laboratories: compare values within a part only.

Sample 1
Target: Sal-like protein 4, full length isoform B (SALL4, Homo sapiens, UniProt Q9UJQ4-2, residues 1-616)
Method: universal PBM
Form: double-stranded DNA, one strand shown
Sample: in vitro
Concentration: not given
Setting: 8-mer, flanks averaged, mean of replicates
Reading: higher = stronger binding
Oligonucleotide	E-score
AATGGGGG	-0.117
TTAGACAA	0.178
ACTTAAAG	0.0756
CTCGCAAG	-0.125

Sample 2
Target: Histone acetyltransferase KAT6A, both winged helices, GST fusion (KAT6A, Homo sapiens, UniProt Q92794, residues 1-181)
Method: protein binding microarray
Form: double-stranded DNA, one strand shown
Sample: in vitro
Concentration: not given
Setting: 8-mer, flanks averaged, mean of 2 arrays, mostly near background
Baseline: not given
Reading: higher = stronger binding
Residues (chain): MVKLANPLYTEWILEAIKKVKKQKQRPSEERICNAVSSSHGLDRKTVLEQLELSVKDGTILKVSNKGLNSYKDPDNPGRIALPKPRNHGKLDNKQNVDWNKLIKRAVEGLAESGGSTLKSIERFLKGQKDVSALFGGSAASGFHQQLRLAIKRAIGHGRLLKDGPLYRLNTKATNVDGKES
Oligonucleotide	E-score
GATGGTAC	-0.062
CTGAGAGC	-0.0489
AAGAGCAC	-0.141
GATGCTGC	-0.0277
ATTAGCTA	-0.133
CTGTACCA	-0.201
AGATCTAC	-0.0623

Sample 3
Target: Interferon regulatory factor 7, full length, phosphomimetic (IRF7, Homo sapiens, UniProt Q92985, residues 1-503, S101K/S471D/S472D/S475D/S476D/S477D/S483D/S484D/S487D)
Chain of UniProt Q92985 (whole entry, unmodified, looked up): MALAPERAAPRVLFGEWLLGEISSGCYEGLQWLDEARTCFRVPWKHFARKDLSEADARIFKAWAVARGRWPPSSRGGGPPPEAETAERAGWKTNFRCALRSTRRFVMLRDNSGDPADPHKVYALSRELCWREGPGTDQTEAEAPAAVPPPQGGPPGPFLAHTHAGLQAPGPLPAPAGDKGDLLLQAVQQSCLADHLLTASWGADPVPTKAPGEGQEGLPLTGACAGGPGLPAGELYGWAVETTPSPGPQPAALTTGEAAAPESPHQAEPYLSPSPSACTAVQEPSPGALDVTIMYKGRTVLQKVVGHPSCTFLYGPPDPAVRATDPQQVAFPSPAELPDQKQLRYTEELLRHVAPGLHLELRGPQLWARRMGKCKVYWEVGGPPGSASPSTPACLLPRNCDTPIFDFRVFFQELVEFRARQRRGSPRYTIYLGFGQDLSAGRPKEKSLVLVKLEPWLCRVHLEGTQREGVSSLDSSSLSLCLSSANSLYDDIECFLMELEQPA
Method: protein-binding microarray
Form: double-stranded DNA, one strand shown
Sample: in vitro
Concentration: 250 nM
Setting: 60-bp whole probe
With: salmon DNA 0.4 mg/ml
Baseline: random background probes
Reading: higher = stronger binding
Oligonucleotide	log fluorescence [z-score]
GCCTAGCACGGCTCTCAGTGGGCTGCTGGGTGCTAGGTCTTGATTCGCTTGACGCTGCTG	-0.663
GCCTAGCACTCAACTCTTTATTTAAGACTGTGCTAGGTCTTGATTCGCTTGACGCTGCTG	0.277
GCCTAGCACTTAGAACTGAGACTAGATTAGTGCTAGGTCTTGATTCGCTTGACGCTGCTG	0.0431

Further values, each from its own experiment
Molecule	target	test	system	setting	scale	measurement	result
PhoQ, residues 284 288 289 292 302 303 TASMAF	PhoP, residues 12 14 15 18 19 LHSVW (Escherichia coli, UniProt P23836)	Sort-seq, measured: YFP reporter	E. coli	PhoQ-PhoP variant library, with: 10 µM Mg2+	baseline: high Mg2+ state, higher = stronger signaling	fold induction	11.7

For quick reference, copied from above (sample 2):
Oligonucleotide	E-score
CTGAGAGC	-0.0489
AAGAGCAC	-0.141
